{"sequences": {"note": "By UniProt entry, the sequences of proteins in these tests, tags left out.", "UniProt Q99683, whole entry": "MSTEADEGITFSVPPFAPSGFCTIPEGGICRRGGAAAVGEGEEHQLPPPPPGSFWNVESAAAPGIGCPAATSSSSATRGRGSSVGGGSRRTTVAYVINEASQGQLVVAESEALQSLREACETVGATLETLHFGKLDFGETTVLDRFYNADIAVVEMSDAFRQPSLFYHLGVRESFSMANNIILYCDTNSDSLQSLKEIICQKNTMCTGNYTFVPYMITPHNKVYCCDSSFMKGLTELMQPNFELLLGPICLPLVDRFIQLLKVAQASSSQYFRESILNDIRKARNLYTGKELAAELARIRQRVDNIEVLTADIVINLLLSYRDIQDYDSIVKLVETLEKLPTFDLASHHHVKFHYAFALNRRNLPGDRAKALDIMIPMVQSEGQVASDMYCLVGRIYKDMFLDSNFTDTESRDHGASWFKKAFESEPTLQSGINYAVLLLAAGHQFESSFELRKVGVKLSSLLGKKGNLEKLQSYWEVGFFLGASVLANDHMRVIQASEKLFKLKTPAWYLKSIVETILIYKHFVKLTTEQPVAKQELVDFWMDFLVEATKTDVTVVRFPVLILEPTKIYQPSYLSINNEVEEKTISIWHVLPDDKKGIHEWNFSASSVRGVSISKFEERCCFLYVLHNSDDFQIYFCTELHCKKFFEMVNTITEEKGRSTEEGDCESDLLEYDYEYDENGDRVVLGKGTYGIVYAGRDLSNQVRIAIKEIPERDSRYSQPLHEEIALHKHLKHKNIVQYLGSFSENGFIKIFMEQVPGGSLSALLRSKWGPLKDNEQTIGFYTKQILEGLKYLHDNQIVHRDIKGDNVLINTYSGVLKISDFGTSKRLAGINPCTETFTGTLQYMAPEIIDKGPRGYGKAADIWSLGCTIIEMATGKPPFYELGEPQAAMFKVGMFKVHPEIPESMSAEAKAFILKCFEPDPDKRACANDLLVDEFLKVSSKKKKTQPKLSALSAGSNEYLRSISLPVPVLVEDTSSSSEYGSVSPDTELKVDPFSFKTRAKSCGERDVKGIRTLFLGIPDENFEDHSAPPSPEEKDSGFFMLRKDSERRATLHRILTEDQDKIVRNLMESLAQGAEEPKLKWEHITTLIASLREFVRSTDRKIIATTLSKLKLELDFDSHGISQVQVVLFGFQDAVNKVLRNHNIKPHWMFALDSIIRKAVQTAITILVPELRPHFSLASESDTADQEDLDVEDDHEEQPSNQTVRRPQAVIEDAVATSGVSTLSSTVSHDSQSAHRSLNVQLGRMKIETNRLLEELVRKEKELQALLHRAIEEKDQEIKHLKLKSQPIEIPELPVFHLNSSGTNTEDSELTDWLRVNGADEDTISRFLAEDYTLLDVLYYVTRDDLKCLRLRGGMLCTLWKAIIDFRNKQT", "UniProt P29597, whole entry": "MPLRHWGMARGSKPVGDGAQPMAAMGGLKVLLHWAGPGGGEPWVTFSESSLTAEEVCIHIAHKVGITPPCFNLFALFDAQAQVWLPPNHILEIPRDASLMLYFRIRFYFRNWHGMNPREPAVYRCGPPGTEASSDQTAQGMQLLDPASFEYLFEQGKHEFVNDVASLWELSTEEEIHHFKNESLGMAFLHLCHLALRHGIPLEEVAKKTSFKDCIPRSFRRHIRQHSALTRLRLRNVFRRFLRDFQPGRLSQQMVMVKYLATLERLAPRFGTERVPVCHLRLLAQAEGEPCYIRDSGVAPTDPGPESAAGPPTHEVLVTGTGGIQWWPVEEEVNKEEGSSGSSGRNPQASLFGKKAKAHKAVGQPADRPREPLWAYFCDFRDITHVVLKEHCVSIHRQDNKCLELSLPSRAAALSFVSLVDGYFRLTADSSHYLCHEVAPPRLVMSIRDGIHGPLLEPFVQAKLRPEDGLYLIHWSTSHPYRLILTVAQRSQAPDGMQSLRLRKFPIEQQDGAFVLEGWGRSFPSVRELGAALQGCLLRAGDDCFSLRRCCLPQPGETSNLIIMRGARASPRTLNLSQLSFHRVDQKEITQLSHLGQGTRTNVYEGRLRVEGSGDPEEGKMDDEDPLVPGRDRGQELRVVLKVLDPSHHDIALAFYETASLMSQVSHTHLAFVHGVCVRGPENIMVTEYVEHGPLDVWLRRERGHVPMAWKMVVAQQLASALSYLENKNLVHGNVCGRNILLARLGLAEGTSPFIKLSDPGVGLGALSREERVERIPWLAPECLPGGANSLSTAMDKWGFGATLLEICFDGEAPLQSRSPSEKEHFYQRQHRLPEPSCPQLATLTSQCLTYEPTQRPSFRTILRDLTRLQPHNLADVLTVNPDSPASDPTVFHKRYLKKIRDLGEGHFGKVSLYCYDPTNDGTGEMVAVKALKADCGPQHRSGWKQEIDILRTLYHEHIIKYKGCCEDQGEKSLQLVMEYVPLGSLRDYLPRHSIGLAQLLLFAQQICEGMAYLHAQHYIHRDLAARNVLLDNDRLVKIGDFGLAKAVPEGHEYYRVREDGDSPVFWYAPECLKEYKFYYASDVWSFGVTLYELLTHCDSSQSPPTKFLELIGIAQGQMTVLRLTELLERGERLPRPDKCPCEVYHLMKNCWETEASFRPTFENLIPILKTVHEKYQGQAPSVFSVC"}, "data": "Assay results of several laboratories", "note": "Each line is one published result; not all experiments were run side by side. Numbers after ± are the reported error."}
{"Molecule": "C[C@H]1COc2c(N3CCN(C)CC3)c(F)cc3c(=O)c(C(=O)O)cn1c23", "target": "Staphylococcus aureus topoisomerase IV GrlA S81F", "test": "DNA cleavage", "endpoint": "CC3", "value": "38.8 µM"}
{"Molecule": "CCN1CCN(Cc2ccc(NC(=O)c3ccc(C)c(/C=C/c4cnc5[nH]ccc5c4OC)c3)cc2C(F)(F)F)CC1", "target": "Mitogen-activated protein kinase kinase kinase 5, with CDC37 (MAP3K5, Homo sapiens, UniProt Q99683)", "test": "inhibitor, cell-based kinome screen", "system": "human cells", "conditions": "5 µM", "how to read": "relative to: vehicle", "endpoint": "log2 fold change", "value": -1.03}
{"Molecule": "CCC(C)C1NC(=O)/C(=C(/C)O)C1=O (stereo not shown)", "target": "spinach plasma membrane H+-ATPase", "test": "enzyme activity", "conditions": "20 µM, 10 min, without fusicoccin or 14-3-3", "endpoint": "specific activity", "value": "10.1 Pi/mg protein/min"}
{"Molecule": "CC[C@H](C)[C@@H]1NC(=O)[C@H](CCC(=O)O)NC(=O)[C@@H]2CCCN2C(=O)[C@H](Cc2c[nH]cn2)NC(=O)[C@H](CC(=O)O)NC(=O)[C@H](Cc2ccc(O)cc2)NC(=O)[C@H](CC(N)=O)NC(=O)[C@@H]2CSSC[C@@H]3NC(=O)CNC(=O)CNC(=O)CNC(=O)[C@H](C)NC(=O)[C@H](C)NC(=O)CNC(=O)CNC(=O)[C@H](CSSC[C@H](NC3=O)C(=O)N[C@@H](CO)C(=O)N[C@@H](CC(=O)O)C(=O)N3CCC[C@H]3C(=O)N[C@@H](CCCNC(=N)N)C(=O)N2)NC1=O", "target": "Cav2.3c human Y1765F", "test": "Ba2+ current", "conditions": "200 nM", "endpoint": "inhibition", "value": "15 ± 3.2%"}
{"Molecule": "13-desmethyl spirolide C", "target": "nicotinic acetylcholine receptor (Torpedo marmorata)", "test": "binding", "conditions": "methanol standard, with: biotin-α-bungarotoxin 80 nM", "endpoint": "IC50", "value": "6.84 ± 1.15 nM"}
{"Molecule": "CC#C/C(=N\\OC[C@H]1COCCN1)c1ccc2ncnc(Nc3ccc(OCc4cccc(F)c4)c(Cl)c3)c2c1", "target": "TYK2 (Homo sapiens, UniProt P29597)", "test": "kinase activity", "conditions": "10 µM", "endpoint": "inhibition", "value": "5.4%"}
{"Molecule": "Cc1ccc(S(=O)(=O)N(C)CC(=O)N(CC2CCNCC2)c2ccc(C(=O)O)c(O)c2)cc1", "target": "STAT3", "test": "STAT3 dimer DNA binding, inhibitor, EMSA", "system": "nuclear extract", "endpoint": "IC50", "value": "> 300000 nM"}
{"Molecule": "U-69593", "target": "opioid receptors, mouse", "test": "G protein activation, agonist", "system": "C57BL/6 wild-type mouse striatal membranes", "conditions": "20 µM", "how to read": "relative to: vehicle", "endpoint": "fold stimulation", "value": "1.32 ± 0.02 fold"}
{"Molecule": "pralidoxime iodide", "target": "butyrylcholinesterase (pig), DFP-inhibited", "test": "reactivator", "how to read": "relative to: kr human over kr porcine enzyme", "endpoint": "reactivation rate ratio", "value": "5 fold"}
{"Molecule": "CC(C)[C@H]1CC[C@@H](N2CCC(n3c(CO)cc4ccccc43)CC2)CC1", "target": "L-type calcium channel", "test": "radioligand binding", "conditions": "10 µM", "endpoint": "inhibition", "value": "73%"}
{"Molecule": "methylarsonous diiodide", "target": "pyruvate dehydrogenase complex, porcine", "test": "enzyme activity, inhibitor", "conditions": "1 h, 1 h preincubation, as ppb arsenic", "endpoint": "IC50", "value": "6.9 ppb"}
{"Molecule": "Cc1c(N2CC[C@@H](CN)C2)c(F)cc2c(=O)n(N)c(=O)n(C3CC3)c12", "target": "Staphylococcus aureus topoisomerase IV GrlA S81F", "test": "DNA cleavage complex stability", "conditions": "20 µM", "how to read": "relative to: wild type", "endpoint": "decrease in cleavage complex half-life", "value": "≤ 30%"}
{"Molecule": "c1ccc(Nc2cccc3ccccc23)cc1", "target": "Manis javanica OBP3 Y87A", "test": "binding, fluorescence binding", "conditions": "with: 1-NPN probe", "endpoint": "Kd", "value": "790 ± 270 nM"}
{"Molecule": "U-69593", "target": "human kappa opioid receptor", "test": "G protein over ERK1/2, operational model", "conditions": "unit not given", "how to read": "relative to: reference agonist", "endpoint": "ΔΔlog(τ/KA)", "value": 0}
{"Molecule": "diisopropyl fluorophosphate", "target": "bovine lens protease", "test": "enzyme activity, inhibitor", "system": "lens protease-rich fraction", "conditions": "1 mM, 30 min preincubation, 37 °C, with: MCA-62-70 substrate 5 µg", "how to read": "relative to: untreated", "endpoint": "remaining activity", "value": "78%"}
{"Molecule": "CN1CC[C@]23c4c5ccc(O)c4O[C@H]2[C@@H](O)C=C[C@H]3[C@H]1C5", "target": "human mu opioid receptor", "test": "operational model", "how to read": "relative to: GTPγS binding over β-arrestin 2 recruitment, relative to DAMGO, above 1 favours GTPγS binding", "endpoint": "bias factor", "value": 1.8}
